{"data": "Measurements pooled from the literature", "MTNR1B": "Melatonin receptor type 1B (MTNR1B, Homo sapiens, UniProt P49286)", "chain of UniProt P49286 (whole entry, looked up)": "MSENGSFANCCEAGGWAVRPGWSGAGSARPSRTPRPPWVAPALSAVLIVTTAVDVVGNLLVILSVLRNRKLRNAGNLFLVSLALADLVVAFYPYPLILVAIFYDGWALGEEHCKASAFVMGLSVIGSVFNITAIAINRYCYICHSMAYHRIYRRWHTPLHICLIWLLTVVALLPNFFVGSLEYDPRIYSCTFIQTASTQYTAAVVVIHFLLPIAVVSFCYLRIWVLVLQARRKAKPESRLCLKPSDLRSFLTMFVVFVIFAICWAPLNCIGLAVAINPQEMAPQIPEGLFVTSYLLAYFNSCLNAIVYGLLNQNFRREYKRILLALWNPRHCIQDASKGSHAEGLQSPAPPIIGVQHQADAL", "chain of UniProt P42336 (whole entry, unmodified, looked up)": "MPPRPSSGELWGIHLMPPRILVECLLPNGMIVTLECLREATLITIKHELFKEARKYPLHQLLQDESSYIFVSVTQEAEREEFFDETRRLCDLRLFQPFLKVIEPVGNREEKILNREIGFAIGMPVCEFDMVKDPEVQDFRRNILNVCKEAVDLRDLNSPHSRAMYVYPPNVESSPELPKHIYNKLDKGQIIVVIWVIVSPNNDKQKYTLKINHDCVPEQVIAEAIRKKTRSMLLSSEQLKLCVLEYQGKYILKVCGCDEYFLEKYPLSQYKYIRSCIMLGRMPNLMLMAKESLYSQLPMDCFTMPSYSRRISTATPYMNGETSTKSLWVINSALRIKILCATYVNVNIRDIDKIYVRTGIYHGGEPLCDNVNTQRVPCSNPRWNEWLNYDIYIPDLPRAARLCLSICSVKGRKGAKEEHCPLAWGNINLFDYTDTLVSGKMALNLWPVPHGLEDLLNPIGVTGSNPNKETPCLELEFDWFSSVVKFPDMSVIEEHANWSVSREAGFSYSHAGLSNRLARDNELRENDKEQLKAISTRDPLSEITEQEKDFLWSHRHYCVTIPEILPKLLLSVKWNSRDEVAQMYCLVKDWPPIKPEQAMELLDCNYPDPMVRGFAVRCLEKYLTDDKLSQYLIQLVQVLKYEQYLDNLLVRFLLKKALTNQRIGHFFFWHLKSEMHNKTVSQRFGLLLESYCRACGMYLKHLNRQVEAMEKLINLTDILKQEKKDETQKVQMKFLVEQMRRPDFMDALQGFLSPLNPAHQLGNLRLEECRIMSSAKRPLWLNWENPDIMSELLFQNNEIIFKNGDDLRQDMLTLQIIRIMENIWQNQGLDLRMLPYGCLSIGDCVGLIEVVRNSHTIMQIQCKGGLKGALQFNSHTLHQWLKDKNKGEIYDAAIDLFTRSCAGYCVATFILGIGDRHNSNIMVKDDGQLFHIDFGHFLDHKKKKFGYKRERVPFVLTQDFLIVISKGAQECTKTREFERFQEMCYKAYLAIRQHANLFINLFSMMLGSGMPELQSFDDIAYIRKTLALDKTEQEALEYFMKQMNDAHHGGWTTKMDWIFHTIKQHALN", "chain of UniProt P57059 (whole entry, looked up)": "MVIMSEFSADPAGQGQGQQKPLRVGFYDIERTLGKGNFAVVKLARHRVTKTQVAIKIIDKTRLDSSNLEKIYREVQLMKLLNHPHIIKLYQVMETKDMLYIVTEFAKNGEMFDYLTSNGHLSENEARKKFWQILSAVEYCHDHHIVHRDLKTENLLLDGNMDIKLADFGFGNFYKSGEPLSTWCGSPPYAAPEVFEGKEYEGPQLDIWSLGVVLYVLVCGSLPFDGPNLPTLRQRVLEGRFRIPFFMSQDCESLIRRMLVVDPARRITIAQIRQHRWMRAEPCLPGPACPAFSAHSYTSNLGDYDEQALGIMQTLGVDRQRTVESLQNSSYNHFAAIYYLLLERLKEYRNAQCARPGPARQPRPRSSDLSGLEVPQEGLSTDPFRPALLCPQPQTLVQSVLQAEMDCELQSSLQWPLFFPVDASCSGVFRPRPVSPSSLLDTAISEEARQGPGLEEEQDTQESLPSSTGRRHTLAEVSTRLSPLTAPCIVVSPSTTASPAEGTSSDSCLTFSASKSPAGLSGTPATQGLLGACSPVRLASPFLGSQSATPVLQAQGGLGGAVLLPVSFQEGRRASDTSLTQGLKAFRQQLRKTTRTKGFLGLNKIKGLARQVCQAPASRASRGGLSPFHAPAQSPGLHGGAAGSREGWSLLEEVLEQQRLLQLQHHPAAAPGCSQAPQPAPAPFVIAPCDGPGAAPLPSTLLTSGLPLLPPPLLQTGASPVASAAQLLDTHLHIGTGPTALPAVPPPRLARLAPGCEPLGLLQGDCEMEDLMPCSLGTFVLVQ", "chain of UniProt P21802 (whole entry, looked up)": "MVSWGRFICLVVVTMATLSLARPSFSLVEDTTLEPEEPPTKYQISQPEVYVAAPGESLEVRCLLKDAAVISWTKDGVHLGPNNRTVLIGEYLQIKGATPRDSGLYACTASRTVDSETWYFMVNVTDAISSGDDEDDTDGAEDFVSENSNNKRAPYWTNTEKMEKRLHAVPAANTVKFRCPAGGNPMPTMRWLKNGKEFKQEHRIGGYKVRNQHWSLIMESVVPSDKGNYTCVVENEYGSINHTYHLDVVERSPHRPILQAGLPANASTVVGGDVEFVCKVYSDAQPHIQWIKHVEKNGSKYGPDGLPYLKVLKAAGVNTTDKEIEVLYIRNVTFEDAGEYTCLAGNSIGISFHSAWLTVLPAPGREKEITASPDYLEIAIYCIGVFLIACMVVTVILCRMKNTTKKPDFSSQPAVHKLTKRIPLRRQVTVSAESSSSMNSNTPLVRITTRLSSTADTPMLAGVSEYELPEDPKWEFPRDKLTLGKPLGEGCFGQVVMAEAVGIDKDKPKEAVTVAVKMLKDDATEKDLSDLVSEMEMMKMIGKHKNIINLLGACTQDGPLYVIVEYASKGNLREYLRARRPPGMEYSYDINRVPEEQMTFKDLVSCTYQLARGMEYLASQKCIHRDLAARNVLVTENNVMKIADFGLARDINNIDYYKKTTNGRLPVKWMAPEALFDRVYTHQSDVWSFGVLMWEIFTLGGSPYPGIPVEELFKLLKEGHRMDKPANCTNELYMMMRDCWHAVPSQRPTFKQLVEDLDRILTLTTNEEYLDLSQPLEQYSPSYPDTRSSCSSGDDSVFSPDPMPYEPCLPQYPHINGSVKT", "chain of UniProt O43781 (whole entry, looked up)": "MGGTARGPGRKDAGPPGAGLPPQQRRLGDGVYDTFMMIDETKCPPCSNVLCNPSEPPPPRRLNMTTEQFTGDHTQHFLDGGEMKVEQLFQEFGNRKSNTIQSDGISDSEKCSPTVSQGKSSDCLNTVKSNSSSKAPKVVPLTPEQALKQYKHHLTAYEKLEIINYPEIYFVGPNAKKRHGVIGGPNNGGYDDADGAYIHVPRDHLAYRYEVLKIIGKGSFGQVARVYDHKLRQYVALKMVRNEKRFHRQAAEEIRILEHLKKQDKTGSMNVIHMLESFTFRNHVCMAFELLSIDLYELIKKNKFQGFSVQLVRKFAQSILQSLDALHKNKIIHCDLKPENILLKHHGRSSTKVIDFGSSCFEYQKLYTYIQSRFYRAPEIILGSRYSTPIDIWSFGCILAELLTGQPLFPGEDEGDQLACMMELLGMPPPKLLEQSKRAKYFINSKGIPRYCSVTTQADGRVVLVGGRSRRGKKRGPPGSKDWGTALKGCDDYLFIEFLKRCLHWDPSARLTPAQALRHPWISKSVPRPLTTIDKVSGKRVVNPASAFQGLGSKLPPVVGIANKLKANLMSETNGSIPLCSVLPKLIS", "chain of UniProt P03372 (whole entry, looked up)": "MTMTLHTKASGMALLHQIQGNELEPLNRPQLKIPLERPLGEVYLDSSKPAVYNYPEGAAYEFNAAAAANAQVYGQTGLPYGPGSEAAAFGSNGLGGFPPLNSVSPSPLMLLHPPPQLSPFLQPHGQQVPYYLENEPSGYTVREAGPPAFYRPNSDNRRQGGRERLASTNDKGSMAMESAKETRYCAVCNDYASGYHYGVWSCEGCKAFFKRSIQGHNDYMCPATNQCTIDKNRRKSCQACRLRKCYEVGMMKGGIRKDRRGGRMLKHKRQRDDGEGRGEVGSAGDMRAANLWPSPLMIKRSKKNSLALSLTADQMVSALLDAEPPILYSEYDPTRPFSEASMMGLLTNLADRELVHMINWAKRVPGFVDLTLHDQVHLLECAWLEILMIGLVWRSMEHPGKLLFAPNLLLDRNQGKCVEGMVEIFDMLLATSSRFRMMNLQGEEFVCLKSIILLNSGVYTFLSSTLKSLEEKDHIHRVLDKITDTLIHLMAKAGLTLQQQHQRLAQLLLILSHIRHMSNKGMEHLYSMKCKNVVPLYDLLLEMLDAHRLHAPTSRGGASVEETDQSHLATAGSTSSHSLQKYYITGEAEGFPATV", "chain of UniProt Q9P0L2 (whole entry, looked up)": "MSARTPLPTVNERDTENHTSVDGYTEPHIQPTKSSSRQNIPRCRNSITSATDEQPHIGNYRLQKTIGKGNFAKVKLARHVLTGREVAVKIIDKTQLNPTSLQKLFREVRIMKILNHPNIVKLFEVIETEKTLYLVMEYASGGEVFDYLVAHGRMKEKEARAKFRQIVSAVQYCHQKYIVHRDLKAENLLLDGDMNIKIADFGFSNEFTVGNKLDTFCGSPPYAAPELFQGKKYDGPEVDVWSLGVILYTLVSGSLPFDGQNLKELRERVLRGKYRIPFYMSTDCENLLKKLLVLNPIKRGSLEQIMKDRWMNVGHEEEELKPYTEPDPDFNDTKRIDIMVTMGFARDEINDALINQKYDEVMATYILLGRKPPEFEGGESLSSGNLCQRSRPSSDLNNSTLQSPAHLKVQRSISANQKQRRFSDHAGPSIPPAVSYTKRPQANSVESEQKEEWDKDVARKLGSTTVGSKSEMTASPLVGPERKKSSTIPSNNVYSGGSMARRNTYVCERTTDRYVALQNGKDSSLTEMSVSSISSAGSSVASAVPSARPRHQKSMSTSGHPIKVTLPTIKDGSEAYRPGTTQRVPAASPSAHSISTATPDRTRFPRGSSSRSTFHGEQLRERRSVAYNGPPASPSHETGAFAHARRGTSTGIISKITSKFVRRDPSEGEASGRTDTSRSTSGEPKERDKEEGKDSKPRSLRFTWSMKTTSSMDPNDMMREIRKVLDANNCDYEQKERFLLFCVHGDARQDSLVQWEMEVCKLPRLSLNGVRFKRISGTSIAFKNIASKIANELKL"}
{"SMILES": "CNc1ncc2c(/C=C/C(=O)N3CCC(OC)CC3)nn(Cc3cccc(C(F)(F)F)c3)c2n1", "target": "TSSK2 (Homo sapiens, UniProt Q96PF2)", "test": "enzyme activity, inhibitor, radiometric", "conditions": "1 µM", "endpoint": "remaining activity", "result": "105%"}
{"SMILES": "CN(C)c1ncc(F)c(-c2cnn3ncccc23)n1", "target": "SIK1 (Homo sapiens, UniProt P57059)", "test": "binding", "conditions": "1 µM", "endpoint": "remaining binding", "result": "100%"}
{"SMILES": "CN1CC(Oc2cnc(C#N)cc2-c2ccn3nc(NC(=O)C4CC4)cc3c2)C1", "target": "DYRK3 (Homo sapiens, UniProt O43781)", "test": "enzyme activity, inhibitor", "conditions": "1 µM", "endpoint": "inhibition", "result": "8%"}
{"SMILES": "C1=C/COCc2cc(ccc2OCCN2CCCC2)Nc2nccc(n2)-c2cccc(c2)COC/1", "target": "BMPR1B (Homo sapiens, UniProt O00238)", "test": "binding", "conditions": "0.1 µM", "endpoint": "remaining binding", "result": "57%"}
{"SMILES": "Cc1cc(-c2c3ccccc3c(Br)c3sc(C)c(C)c23)cc(C)c1O[C@H](Cc1ccccc1)C(=O)O", "target": "PTPN1 (Homo sapiens, UniProt P18031)", "test": "thermal stability, DSF", "endpoint": "ΔTm", "result": "> 5 °C"}
{"SMILES": "C=CC(=O)N1CCC(COCC(=O)N2CCN(c3nc(-c4cnc(N)nc4C(F)F)nc(N4CCOC[C@@H]4C)n3)CC2)CC1", "target": "MARK1 (Homo sapiens, UniProt Q9P0L2)", "test": "binding, competition with immobilised ligand", "conditions": "1 µM", "endpoint": "remaining binding", "result": "100%"}
{"SMILES": "CCCCC(=O)Nc1ccc(-c2ccc3ncn(CCC)c(=O)c3c2)cn1", "target": "CDK15 (Homo sapiens, UniProt Q96Q40)", "test": "binding, competition with immobilised ligand", "conditions": "0.5 µM", "endpoint": "remaining binding", "result": "100%"}
{"SMILES": "COc1ccc2ncn(CCNC(C)=O)c2c1", "target": "MTNR1B", "test": "cAMP, agonist, TR-FRET", "test system": "CHO-K1", "conditions": "20 min", "endpoint": "Emax", "result": "60%"}
{"SMILES": "Cc1cc([C@@H](C)Nc2ccccc2C(=O)O)c2nc(N3CCC(F)(F)CC3)c(C#N)c(=O)n2c1", "target": "FGFR2 (Homo sapiens, UniProt P21802)", "test": "binding, competition with immobilised ligand", "conditions": "1 µM", "endpoint": "remaining binding", "result": "100%"}
{"SMILES": "COc1cc(-c2cncc3c2CN(C)Cc2cc(N4CCNCC4)ccc2-3)cc(OC)c1OC", "target": "ULK3 (Homo sapiens, UniProt Q6PHR2)", "test": "enzyme activity, inhibitor", "conditions": "1 µM", "endpoint": "remaining activity", "result": "107%"}
{"SMILES": "Nc1ncnc2occ(-c3ccc(NC(=O)Nc4cc(C(F)(F)F)ccc4F)cc3)c12", "target": "PIK3CA (Homo sapiens, UniProt P42336, E542K)", "test": "cell-free assay, inhibitor", "conditions": "20 µM", "endpoint": "remaining signal", "result": "46%"}
{"SMILES": "CC[C@H](C)[C@H](NC(=O)[C@H](CCC(N)=O)NC(=O)[C@@H](NC(=O)[C@H](CCSC)NC(=O)[C@H](CCCCN)NC(=O)[C@H](CO)NC(=O)[C@@H](NC(=O)[C@H](CCSC)NC(=O)[C@H](CC(C)C)NC(=O)[C@H](CC(N)=O)NC(=O)[C@@H](NC(=O)[C@@H](NC(=O)[C@H](CO)NC(=O)[C@H](CC(C)C)NC(=O)[C@H](C)NC(=O)[C@H](CCCNC(=N)N)NC(=O)[C@H](CCC(=O)O)NC(=O)[C@H](Cc1ccc(O)cc1)NC(=O)[C@H](Cc1ccccc1)NC(=O)[C@H](C)NC(=O)[C@H](CC(N)=O)NC(=O)[C@@H](N)CCCCN)[C@@H](C)CC)[C@@H](C)CC)[C@@H](C)O)C(C)C)C(=O)N[C@@H](CC(N)=O)C(=O)N[C@H](C(=O)O)C(C)C", "target": "MAPK3 (Homo sapiens, UniProt P27361)", "test": "enzyme activity, inhibitor, radiometric", "conditions": "250 µM, 20 min", "endpoint": "remaining activity", "result": "65%"}
{"SMILES": "O=C(NCCc1cccc2ccccc12)C1CCC1", "target": "MTNR1B", "test": "GTPγS binding, agonist, radiometric", "conditions": "cell membranes", "endpoint": "Emax", "result": "42%"}
{"SMILES": "NC/C(=C\\F)COc1cccc(Cn2c(=S)[nH]c(=O)c3[nH]cnc32)c1", "target": "Estrogen receptor (ESR1, Homo sapiens, UniProt P03372)", "test": "ligand displacement, radioligand", "conditions": "10 µM", "endpoint": "inhibition", "result": "< 50%"}
{"note": "Repeated from above:"}
{"SMILES": "O=C(NCCc1cccc2ccccc12)C1CCC1", "target": "MTNR1B", "test": "GTPγS binding, agonist, radiometric", "conditions": "cell membranes", "endpoint": "Emax", "result": "42%"}
